Published values from different studies.
Parts stem from different laboratories: compare values within a part only.
Chain of UniProt P30291 (whole entry, looked up): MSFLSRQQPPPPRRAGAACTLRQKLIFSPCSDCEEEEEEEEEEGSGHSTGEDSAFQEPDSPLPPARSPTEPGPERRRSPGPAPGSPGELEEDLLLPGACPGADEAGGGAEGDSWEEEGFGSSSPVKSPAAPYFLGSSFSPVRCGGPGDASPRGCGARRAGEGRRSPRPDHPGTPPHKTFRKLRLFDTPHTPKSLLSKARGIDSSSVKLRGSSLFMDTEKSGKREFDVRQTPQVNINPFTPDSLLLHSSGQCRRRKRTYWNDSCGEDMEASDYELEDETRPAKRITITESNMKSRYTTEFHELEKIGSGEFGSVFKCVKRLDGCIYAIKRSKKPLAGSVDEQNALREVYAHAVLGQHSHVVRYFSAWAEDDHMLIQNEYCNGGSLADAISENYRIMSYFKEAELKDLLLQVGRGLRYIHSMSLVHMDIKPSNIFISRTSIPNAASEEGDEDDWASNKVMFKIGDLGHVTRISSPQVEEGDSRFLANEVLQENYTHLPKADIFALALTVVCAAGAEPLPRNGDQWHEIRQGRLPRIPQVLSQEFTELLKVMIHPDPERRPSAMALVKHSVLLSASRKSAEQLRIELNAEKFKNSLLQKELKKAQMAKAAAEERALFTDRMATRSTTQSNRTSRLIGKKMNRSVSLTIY
Chain of UniProt Q14680 (whole entry, looked up): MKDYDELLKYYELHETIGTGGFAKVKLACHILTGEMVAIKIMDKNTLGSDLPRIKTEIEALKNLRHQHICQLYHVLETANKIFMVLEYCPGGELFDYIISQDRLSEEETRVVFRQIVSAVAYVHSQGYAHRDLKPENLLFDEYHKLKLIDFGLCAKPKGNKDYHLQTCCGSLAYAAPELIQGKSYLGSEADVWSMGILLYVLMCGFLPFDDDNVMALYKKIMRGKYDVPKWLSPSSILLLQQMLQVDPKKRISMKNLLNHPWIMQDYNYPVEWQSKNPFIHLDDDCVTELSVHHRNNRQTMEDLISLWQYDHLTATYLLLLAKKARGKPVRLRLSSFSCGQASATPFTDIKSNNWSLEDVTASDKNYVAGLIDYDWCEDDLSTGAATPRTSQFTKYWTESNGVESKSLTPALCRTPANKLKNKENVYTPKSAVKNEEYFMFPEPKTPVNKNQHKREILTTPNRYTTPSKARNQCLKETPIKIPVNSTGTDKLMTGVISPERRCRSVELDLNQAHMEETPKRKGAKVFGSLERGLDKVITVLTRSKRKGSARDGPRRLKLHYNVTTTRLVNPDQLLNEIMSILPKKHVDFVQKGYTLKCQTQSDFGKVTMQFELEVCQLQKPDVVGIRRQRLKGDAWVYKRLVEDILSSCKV
Chain of UniProt O75460 (whole entry, looked up): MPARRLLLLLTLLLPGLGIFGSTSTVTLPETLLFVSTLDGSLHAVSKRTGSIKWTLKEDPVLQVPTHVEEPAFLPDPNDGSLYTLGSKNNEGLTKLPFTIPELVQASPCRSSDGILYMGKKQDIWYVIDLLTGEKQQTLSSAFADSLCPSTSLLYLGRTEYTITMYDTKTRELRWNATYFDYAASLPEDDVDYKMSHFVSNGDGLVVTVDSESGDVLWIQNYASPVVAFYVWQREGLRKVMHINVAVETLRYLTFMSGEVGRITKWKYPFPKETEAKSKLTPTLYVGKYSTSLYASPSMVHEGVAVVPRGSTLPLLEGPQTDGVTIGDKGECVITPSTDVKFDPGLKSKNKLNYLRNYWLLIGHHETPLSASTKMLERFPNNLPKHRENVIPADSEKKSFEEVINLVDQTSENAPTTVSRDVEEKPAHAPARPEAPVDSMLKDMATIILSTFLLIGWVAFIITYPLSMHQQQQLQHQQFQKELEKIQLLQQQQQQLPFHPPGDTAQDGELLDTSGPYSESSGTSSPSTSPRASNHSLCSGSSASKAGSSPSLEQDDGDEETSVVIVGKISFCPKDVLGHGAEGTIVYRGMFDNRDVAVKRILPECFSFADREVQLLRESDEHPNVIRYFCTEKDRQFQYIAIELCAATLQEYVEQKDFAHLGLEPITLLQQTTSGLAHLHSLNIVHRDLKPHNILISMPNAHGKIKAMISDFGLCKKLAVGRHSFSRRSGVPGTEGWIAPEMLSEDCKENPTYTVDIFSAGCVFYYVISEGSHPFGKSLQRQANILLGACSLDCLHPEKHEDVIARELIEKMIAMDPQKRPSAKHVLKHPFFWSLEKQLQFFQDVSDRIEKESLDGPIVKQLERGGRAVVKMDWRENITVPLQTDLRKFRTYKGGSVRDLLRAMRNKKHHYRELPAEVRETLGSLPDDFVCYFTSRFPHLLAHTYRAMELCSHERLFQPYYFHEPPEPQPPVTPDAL
Chain of UniProt O95382 (whole entry, looked up): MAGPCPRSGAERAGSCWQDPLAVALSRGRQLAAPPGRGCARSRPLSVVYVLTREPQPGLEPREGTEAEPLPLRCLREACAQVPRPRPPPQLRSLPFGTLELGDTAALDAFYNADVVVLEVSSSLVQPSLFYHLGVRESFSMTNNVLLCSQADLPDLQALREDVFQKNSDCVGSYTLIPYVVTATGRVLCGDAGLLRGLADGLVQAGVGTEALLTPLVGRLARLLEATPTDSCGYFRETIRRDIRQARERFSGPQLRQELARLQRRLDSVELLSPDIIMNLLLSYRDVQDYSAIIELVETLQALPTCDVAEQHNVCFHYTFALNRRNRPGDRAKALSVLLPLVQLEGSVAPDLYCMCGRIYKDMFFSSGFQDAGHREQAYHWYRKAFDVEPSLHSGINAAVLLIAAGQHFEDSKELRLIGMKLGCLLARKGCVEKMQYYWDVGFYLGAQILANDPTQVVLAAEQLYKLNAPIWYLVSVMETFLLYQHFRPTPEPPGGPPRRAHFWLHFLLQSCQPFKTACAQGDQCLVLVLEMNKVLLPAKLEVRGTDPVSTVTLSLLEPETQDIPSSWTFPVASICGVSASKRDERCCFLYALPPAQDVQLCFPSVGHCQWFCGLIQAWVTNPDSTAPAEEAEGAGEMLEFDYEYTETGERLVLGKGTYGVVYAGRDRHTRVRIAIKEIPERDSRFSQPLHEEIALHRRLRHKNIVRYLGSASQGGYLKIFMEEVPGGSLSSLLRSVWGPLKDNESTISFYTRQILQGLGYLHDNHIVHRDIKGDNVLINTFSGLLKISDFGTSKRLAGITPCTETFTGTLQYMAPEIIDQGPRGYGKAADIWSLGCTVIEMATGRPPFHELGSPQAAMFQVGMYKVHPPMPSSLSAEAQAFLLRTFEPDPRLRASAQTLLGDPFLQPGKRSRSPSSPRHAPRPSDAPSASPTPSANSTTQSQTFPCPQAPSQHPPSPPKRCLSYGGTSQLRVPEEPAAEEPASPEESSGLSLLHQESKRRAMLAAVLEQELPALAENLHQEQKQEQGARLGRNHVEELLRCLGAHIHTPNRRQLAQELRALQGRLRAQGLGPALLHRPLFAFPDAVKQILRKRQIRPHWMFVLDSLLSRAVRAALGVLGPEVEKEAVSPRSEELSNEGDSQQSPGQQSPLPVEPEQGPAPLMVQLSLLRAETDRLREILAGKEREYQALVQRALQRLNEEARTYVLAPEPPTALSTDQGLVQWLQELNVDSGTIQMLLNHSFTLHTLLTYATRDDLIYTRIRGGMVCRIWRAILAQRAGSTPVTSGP
Chain of UniProt Q15831 (whole entry, looked up): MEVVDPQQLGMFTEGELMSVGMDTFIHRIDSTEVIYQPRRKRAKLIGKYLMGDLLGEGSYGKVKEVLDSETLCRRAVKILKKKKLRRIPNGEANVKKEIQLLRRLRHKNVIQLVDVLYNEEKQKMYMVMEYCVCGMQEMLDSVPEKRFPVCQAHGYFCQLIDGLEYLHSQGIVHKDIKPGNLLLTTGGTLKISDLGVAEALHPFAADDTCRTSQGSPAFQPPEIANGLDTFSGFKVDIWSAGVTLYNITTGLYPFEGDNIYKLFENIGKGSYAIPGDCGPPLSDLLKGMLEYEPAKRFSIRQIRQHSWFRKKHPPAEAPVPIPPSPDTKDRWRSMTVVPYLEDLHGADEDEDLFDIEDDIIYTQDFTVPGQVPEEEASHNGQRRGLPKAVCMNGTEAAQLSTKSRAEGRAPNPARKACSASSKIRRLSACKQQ

Sample 1 — effect on: enzyme activity; action: inhibitor; concentration: 0.5 µM; relative to: control; endpoint: remaining activity
Target: Inhibitor of nuclear factor kappa-B kinase subunit alpha (CHUK, Homo sapiens, UniProt O15111)
Construct (O15111 1-745): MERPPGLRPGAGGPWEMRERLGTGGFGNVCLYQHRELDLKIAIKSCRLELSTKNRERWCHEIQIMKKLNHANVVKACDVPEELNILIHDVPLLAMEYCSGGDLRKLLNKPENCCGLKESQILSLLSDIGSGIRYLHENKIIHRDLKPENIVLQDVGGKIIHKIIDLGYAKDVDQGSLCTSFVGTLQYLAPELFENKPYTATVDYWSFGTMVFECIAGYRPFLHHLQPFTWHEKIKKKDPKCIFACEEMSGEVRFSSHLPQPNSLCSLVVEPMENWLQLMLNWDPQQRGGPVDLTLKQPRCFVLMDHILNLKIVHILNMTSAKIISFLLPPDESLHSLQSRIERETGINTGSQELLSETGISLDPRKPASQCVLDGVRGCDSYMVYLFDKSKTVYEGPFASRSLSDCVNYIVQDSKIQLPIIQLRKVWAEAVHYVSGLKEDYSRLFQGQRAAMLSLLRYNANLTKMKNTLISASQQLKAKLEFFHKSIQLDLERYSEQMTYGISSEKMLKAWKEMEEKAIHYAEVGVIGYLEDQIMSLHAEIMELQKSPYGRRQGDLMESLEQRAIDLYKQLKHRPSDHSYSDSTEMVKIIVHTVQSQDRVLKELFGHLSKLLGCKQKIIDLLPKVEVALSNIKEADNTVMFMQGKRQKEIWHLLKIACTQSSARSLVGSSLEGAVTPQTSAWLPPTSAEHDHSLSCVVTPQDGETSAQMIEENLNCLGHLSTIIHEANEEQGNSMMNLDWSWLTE
O=C(CCCc1ccc(-c2ccccc2F)cc1)Nc1ccc(O)cc1: 97.3%
CCOC(=O)c1c(C)[nH]c(/C=C2\C(=O)Nc3ccccc32)c1C: 102%
COc1cc2ncnc(Nc3ccc(F)c(Cl)c3)c2cc1OCCCN1CCOCC1: 94.9%
Cn1sc(=O)n(Cc2ccccc2)c1=O: 96.2%
N#CC(C#N)=C(N)/C(C#N)=C/c1ccc(O)cc1: 94%
CC(C)[C@H](CO)Nc1nc(Nc2cc(N)cc(Cl)c2)c2ncn(C(C)C)c2n1: 97.3%
O=C1NC(=O)C(c2cn(CCCn3ccnc3)c3ccccc23)=C1Nc1ccccc1: 105%
CNC(=O)c1cc(Oc2ccc(NC(=O)Nc3ccc(Cl)c(C(F)(F)F)c3)cc2)ccn1: 99.8%
COc1ccc(C(=O)Nc2sc3c(c2C(N)=O)CCCC3)cc1OC: 83.3%
Cc1nc(-c2ccccc2)c(-c2ccncc2)o1: 105%
COc1ccc(CNC(=O)Nc2ncc([N+](=O)[O-])s2)cc1: 97.1%
COc1ccc(OC)c2c(=S)c3ccccc3[nH]c12: 94.3%

Sample 2 — effect on: cell-free assay; technique: competition with immobilised ligand; concentration: 1 µM; endpoint: remaining binding
SMILES: CS(=O)(=O)NCC[C@H](NC(=O)c1cncc2c1cnn2-c1ccc(F)cc1)c1ccnc(S(C)(=O)=O)c1
Maternal embryonic leucine zipper kinase (MELK, Homo sapiens, UniProt Q14680): 99%
Wee1-like protein kinase (WEE1, Homo sapiens, UniProt P30291): 99%
Inhibitor of nuclear factor kappa-B kinase subunit alpha (CHUK, Homo sapiens, UniProt O15111): 100%
Mitogen-activated protein kinase kinase kinase 6 (MAP3K6, Homo sapiens, UniProt O95382): 100%
Mitogen-activated protein kinase kinase kinase 4 (MAP3K4, Homo sapiens, UniProt Q9Y6R4): 84%
Serine/threonine-protein kinase STK11 (STK11, Homo sapiens, UniProt Q15831): 100%
Serine/threonine-protein kinase/endoribonuclease IRE1 (ERN1, Homo sapiens, UniProt O75460): 100%
Receptor-type tyrosine-protein kinase FLT3 (FLT3, Homo sapiens, UniProt P36888, D835V/ITD): 100%

Sample 3 — technique: RNA Bind-n-Seq; molecule type: RNA; matrix: in vitro; concentration: 1 µM; setting: whole 134-nt RNA, ends assumed; together with: 150 mM KCl; relative to: input library; reading: higher = stronger binding; endpoint: log2 enrichment
Target: Ras GTPase-activating protein-binding protein 1, C-terminal RGG region (G3BP1, Homo sapiens, UniProt Q13283)
Chain of UniProt Q13283 (whole entry, looked up): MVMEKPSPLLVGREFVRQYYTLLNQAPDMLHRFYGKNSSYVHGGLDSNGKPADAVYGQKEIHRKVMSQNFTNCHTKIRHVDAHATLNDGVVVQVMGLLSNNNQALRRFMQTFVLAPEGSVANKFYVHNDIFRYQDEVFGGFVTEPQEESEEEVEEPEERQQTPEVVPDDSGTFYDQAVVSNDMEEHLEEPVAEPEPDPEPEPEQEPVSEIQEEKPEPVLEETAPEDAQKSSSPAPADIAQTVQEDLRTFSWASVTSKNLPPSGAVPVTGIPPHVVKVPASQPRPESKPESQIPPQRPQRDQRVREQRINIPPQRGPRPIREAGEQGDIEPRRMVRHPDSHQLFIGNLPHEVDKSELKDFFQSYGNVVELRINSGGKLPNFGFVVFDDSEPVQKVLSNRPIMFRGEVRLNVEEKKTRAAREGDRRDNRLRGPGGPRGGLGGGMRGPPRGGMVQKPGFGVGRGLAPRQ
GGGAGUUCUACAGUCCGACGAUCACCAUGCAGGUGGGCAUCUUUGGGAAGUGAGGCAAGGGGGGGAUAGGGAGGGGGGUAACACUUUGGGAACAGGUGGUCCCAGGUCGUUUCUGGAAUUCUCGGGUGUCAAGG: -1.21
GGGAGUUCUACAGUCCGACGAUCGGGGACGGCAAAACAGAACAGAAAGGCGGAGAUAAAAAGAGGGGUGUUAAAAGACCACGAGAAGAUCAUGGCCGUGGAUAUUUUGAGUACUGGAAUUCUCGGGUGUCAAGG: -0.209
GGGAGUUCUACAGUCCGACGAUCUCCUCAAGUCCUGUGCUACACAUCGUAUGUACCGAAUCGGCGGCGGGGCGGAAAGUAUUAUGUUACGCCGUUCGGAUCUGCACUUCCAGCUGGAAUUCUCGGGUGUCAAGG: -0.816
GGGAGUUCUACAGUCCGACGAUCUAACUUUAGAGGAGGAUCUGAUGGAUAUGGCAGUGGACGUGGAUUUGGGGAUGGCUAUAAUGGGUAUGGAGGAGGACCUGGUGGUGGCAAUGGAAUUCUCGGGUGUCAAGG: -1.07
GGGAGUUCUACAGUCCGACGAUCAGUCCUGUGCUACACAUCGUAUGUACCGAAUCGGGUUUUGGGUUUUGGGGUUUUGGGAAAGUAUUAUGUUACGCCGUUCGGAUCUGCACUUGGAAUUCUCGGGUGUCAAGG: 0.662
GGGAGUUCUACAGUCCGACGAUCAGUCCUGUGCUACACAUCGUAUGUACCGAAUCGGGAAAAAGGGAAAAAGGGAAAGGGAAAGUAUUAUGUUACGCCGUUCGGAUCUGCACUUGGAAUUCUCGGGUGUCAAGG: 0.302
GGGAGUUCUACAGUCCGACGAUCACCAUGCAGGUGGGCAUCUUUGGGAAGUGGGGCAAGGGGGGGAUAGGGAGGGGGGUAACACUUUGGGAACAGGUGGUCCCAGGUCAAAUCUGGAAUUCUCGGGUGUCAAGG: -0.77
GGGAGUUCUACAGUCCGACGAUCCACAGACAACACGCACCCACACAGACACAGAGGGAAGGGGUUGGGAUGGGGACAGGGUGCACAGCAGGGCGGAAAAGGACCCCAGCCCCUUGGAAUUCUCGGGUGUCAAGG: -0.265

Sample 4 — technique: RNA Bind-n-Seq; molecule type: RNA; matrix: in vitro; concentration: 365 nM; relative to: no-protein control; reading: higher = stronger binding; endpoint: RBNS enrichment (R)
Target: RNA binding protein fox-1 homolog 2, RRM domain, GST-SBP tag (RBFOX2, Homo sapiens, UniProt O43251-10, residues 100-194)
Setting: natural RNA segment, single round, ends assumed
Residues (chain): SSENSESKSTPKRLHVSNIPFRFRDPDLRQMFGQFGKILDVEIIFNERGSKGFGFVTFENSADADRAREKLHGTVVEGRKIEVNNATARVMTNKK
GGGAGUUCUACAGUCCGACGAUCCCAUUCAGGGAACCGGCAGCGCCCACCUAGCGGAGCCGGCUUGGCCCCUCCUGAAAGGAUGGAAGGAAACCACCUCCAUCGGUACUCCAAAGUUCUUGAAGCCCACUUGGUGGAAUUCUCGGGUGCCAA: 0.272
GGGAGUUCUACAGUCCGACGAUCAAUGAAUGGUGGAGCCUGCCCUUUUGUGUUCCAAGCUCGGUUGCGAGGAUGACUUACGUGCUCUGAUUUAUAUCAUAAAGCAAGAAGACUGAGCAUUCUUACACUUGAUGUGGAAUUCUCGGGUGCCAA: 0.676
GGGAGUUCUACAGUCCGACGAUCAAUGUCAGCAAUUAUCUGUACAUGGUAAGAACGAAAAAUACCUUCAUUGAAAUAAAGCUACAGCACAAGACAACUUACAGAUUGUGAAACAGCGAGAAUGAAGAGCUACAUGGAAUUCUCGGGUGCCAA: 0.352
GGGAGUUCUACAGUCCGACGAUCAACAAUUCUGCCGGUGCUGAAGUACCAAGAAUGUUUUCAUUUGCAUUUUCCUGGUUAAGAAAUCUGUAUAAAGUUAGUGAGAUGCAUAUUCUUUAUAUAAGGUGGGCAUCUGGAAUUCUCGGGUGCCAA: 0.948
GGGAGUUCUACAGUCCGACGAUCUCAUAUAGUCAAUGUAAAAAUACACUAAUGAGUAUUUGGUAAAUCCCAGUAGGCUUUUACCAUUAGCAUAAUUUUGUGUUGUACAAUUAAGUUACAAUUACAUCUCUAAUUGGAAUUCUCGGGUGCCAA: 0.324
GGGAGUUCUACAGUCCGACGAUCAGAUUACAGUAUGUCCCAUCAAACAUCUGCUGUAGGUGAGGGAGUGGAUUUGAAGAGGGGUUGAAAGAAAGGAAGCAUUCCUCUUGCUUUAAACUAGUAUGUGCAUCAGAUGGAAUUCUCGGGUGCCAA: 6.28
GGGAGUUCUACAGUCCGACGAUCGUUCUCCGUGGUGGAAUUGACCGAAAGCUCUAUGUUUUCGUUAAUAAAGGGCAACUUAGCCAAGUUUAAGGUCGCGUGCGAUGCAUUCUUCCCUAGCCAAGGGGCAGUCAUGGAAUUCUCGGGUGCCAA: 0.265
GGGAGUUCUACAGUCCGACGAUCGGAUGGGGCCUCAUACAACCCUUCAUCUGCACUCAACAUUUAAUCGUGUCCUUGCUGUCUUUUUAUUUUCCUUUUUGUUUGUUAGCAAAAACCUCUAUUUAGAUUUCAAUUGGAAUUCUCGGGUGCCAA: 0.671

Some of these lines once more (sample 3):
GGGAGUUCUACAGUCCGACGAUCACCAUGCAGGUGGGCAUCUUUGGGAAGUGGGGCAAGGGGGGGAUAGGGAGGGGGGUAACACUUUGGGAACAGGUGGUCCCAGGUCAAAUCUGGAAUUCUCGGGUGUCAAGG: -0.77
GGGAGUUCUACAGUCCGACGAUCCACAGACAACACGCACCCACACAGACACAGAGGGAAGGGGUUGGGAUGGGGACAGGGUGCACAGCAGGGCGGAAAAGGACCCCAGCCCCUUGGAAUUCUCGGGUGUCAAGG: -0.265
